# Measurements from different studies.
# Protocols differ between the studies behind these lines.
# HLA class I histocompatibility antigen, A alpha chain allele A*02:01: HLA class I histocompatibility antigen, A alpha chain, allele A*02:01 (Homo sapiens, UniProt P04439)
# HLA class I histocompatibility antigen, A alpha chain allele A*24:02: HLA class I histocompatibility antigen, A alpha chain, allele A*24:02 (Homo sapiens, UniProt P04439)
Structure (SMILES),target,test,setting,IC50
CC[C@H](C)[C@H](NC(=O)[C@@H]1CCCN1C(=O)[C@H](CC(=O)O)NC(=O)[C@H](CCSC)NC(=O)[C@@H](N)Cc1ccc(O)cc1)C(=O)N1CCC[C@H]1C(=O)N[C@@H](Cc1c[nH]cn1)C(=O)N[C@@H](CCC(N)=O)C(=O)N[C@@H](Cc1ccc(O)cc1)C(=O)O,"HLA class I histocompatibility antigen, A alpha chain, allele A*01:01 (Homo sapiens, UniProt P04439)",binding,,0.097 µM
CC[C@H](C)[C@H](NC(=O)[C@H](CCCNC(=N)N)NC(=O)CNC(=O)[C@@H](NC(=O)[C@@H]1CCCN1C(=O)[C@@H](N)CCSC)[C@@H](C)CC)C(=O)N[C@@H](C)C(=O)N[C@@H](CCC(=O)O)C(=O)N[C@@H](CS)C(=O)N[C@H](C(=O)N[C@@H](CC(C)C)C(=O)O)[C@@H](C)CC,"HLA class I histocompatibility antigen, A alpha chain, allele A*30:02 (Homo sapiens, UniProt P04439)","binding, competitor, radioligand competition","two days, room temperature, HLA-A*30:02",> 40 µM
CC(C)[C@H](NC(=O)[C@H](C)NC(=O)[C@@H](N)Cc1ccccc1)C(=O)N[C@@H](CC(=O)O)C(=O)N[C@@H](C)C(=O)N[C@@H](C)C(=O)N[C@@H](CCCCN)C(=O)N[C@@H](C)C(=O)N[C@@H](Cc1ccc(O)cc1)C(=O)O,"HLA class I histocompatibility antigen, A alpha chain allele A*02:01","peptide-MHC binding, radioligand competition binding",,> 70 µM
CSCC[C@H](NC(=O)[C@@H](N)Cc1c[nH]cn1)C(=O)N[C@@H](Cc1ccc(O)cc1)C(=O)N1CCC[C@H]1C(=O)N[C@@H](CC(N)=O)C(=O)N[C@@H](Cc1ccccc1)C(=O)N[C@H](C(=O)N[C@@H](CCC(N)=O)C(=O)N[C@@H](Cc1ccccc1)C(=O)O)C(C)C,"HLA class I histocompatibility antigen, A alpha chain allele A*24:02",binding,,4.92 µM
CSCC[C@H](NC(=O)[C@H](Cc1ccc(O)cc1)NC(=O)[C@H](CC(C)C)NC(=O)[C@H](CCSC)NC(=O)[C@H](CO)NC(=O)CNC(=O)[C@H](CC(C)C)NC(=O)[C@H](CC(C)C)NC(=O)[C@@H](N)CCSC)C(=O)O,"HLA class I histocompatibility antigen, A alpha chain, allele A*26:01 (Homo sapiens, UniProt P04439)","peptide-MHC binding, radioligand competition binding",,45.5 µM
CC[C@H](C)[C@H](NC(=O)[C@H](CCC(N)=O)NC(=O)[C@@H]1CCCN1C(=O)[C@H](Cc1ccc(O)cc1)NC(=O)[C@@H]1CCCN1C(=O)[C@@H](N)CC(C)C)C(=O)N[C@@H](CC(C)C)C(=O)N[C@@H](CC(C)C)C(=O)N[C@@H](CC(C)C)C(=O)O,"HLA class I histocompatibility antigen, A alpha chain allele A*24:02","binding, competitor",,24.1 µM
CSCC[C@H](NC(=O)[C@H](CO)NC(=O)[C@H](Cc1c[nH]c2ccccc12)NC(=O)[C@@H]1CCCN1C(=O)[C@H](CCCCN)NC(=O)[C@H](CCC(N)=O)NC(=O)[C@H](Cc1ccccc1)NC(=O)[C@H](CCSC)NC(=O)[C@@H](N)CCCNC(=N)N)C(=O)O,"HLA class I histocompatibility antigen, A alpha chain allele A*24:02",binding,,4.78 µM
CC(C)[C@H](NC(=O)[C@@H](NC(=O)[C@H](CCCNC(=N)N)NC(=O)[C@H](C)NC(=O)[C@H](C)NC(=O)[C@H](CCC(=O)O)NC(=O)[C@H](CO)NC(=O)[C@H](C)NC(=O)[C@@H](N)Cc1ccccc1)C(C)C)C(=O)O,"HLA class I histocompatibility antigen, A alpha chain allele A*02:01","peptide-MHC binding, radioligand competition binding",,0.495 µM
CC(C)[C@H](NC(=O)CNC(=O)CNC(=O)[C@@H](NC(=O)[C@H](CO)NC(=O)[C@@H]1CCCN1C(=O)[C@H](C)NC(=O)[C@H](CO)NC(=O)[C@H](CCCCN)NC(=O)[C@@H](N)CCCNC(=N)N)[C@@H](C)O)C(=O)O,"HLA class I histocompatibility antigen, A alpha chain, allele A*02:06 (Homo sapiens, UniProt P04439)",binding,,> 38.7 µM
CC(C)C[C@H](NC(=O)[C@@H](N)CCC(N)=O)C(=O)N[C@H](C(=O)N1CCC[C@H]1C(=O)N[C@H](C(=O)N[C@@H](Cc1c[nH]c2ccccc12)C(=O)N[C@@H](CCCNC(=N)N)C(=O)N[C@H](C(=O)N[C@@H](Cc1ccc(O)cc1)C(=O)O)C(C)C)[C@@H](C)O)[C@@H](C)O,"HLA class I histocompatibility antigen, A alpha chain allele A*02:01","peptide-MHC binding, radioligand competition binding",,> 70 µM
CC(C)[C@H](NC(=O)[C@@H](N)CCCCN)C(=O)N[C@@H](CC(=O)O)C(=O)N1CCC[C@H]1C(=O)N[C@@H](CCCCN)C(=O)N[C@@H](Cc1ccccc1)C(=O)N[C@H](C(=O)N[C@@H](CO)C(=O)N[C@@H](Cc1ccccc1)C(=O)O)[C@@H](C)O,"HLA class I histocompatibility antigen, A alpha chain allele A*02:01",binding,,29.4 µM
CSCC[C@H](NC(=O)[C@H](CCC(=O)O)NC(=O)[C@H](CCC(=O)O)NC(=O)[C@@H](N)CCCNC(=N)N)C(=O)N[C@@H](CCC(=O)O)C(=O)N[C@H](C(=O)N[C@@H](Cc1c[nH]cn1)C(=O)N[C@@H](CCC(=O)O)C(=O)N[C@@H](CC(C)C)C(=O)O)C(C)C,"HLA class I histocompatibility antigen, A alpha chain, allele A*02:03 (Homo sapiens, UniProt P04439)","binding, competitor, radioligand competition","two days, room temperature, HLA-A*02:03",> 40 µM

# Some of these lines once more:
Structure (SMILES),target,test,setting,IC50
CC(C)[C@H](NC(=O)CNC(=O)CNC(=O)[C@@H](NC(=O)[C@H](CO)NC(=O)[C@@H]1CCCN1C(=O)[C@H](C)NC(=O)[C@H](CO)NC(=O)[C@H](CCCCN)NC(=O)[C@@H](N)CCCNC(=N)N)[C@@H](C)O)C(=O)O,"HLA class I histocompatibility antigen, A alpha chain, allele A*02:06 (Homo sapiens, UniProt P04439)",binding,,> 38.7 µM
CSCC[C@H](NC(=O)[C@@H](N)Cc1c[nH]cn1)C(=O)N[C@@H](Cc1ccc(O)cc1)C(=O)N1CCC[C@H]1C(=O)N[C@@H](CC(N)=O)C(=O)N[C@@H](Cc1ccccc1)C(=O)N[C@H](C(=O)N[C@@H](CCC(N)=O)C(=O)N[C@@H](Cc1ccccc1)C(=O)O)C(C)C,"HLA class I histocompatibility antigen, A alpha chain allele A*24:02",binding,,4.92 µM
